# Assay results pooled from the literature.
# Organism: Escherichia coli
Structure (SMILES),test,system,setting,MIC
CN(C)c1ccc2nc3ccc(=[N+](C)C)cc-3sc2c1,,ATCC 25922,"18 h, 37 °C, LED irradiation 10 min",> 128 µM
CC[C@]1(C)C[C@@H](OC(=O)CSc2nnc(N)[nH]2)[C@]2(C)[C@H](C)CC[C@]3(CCC(=O)[C@H]32)[C@@H](C)[C@@H]1O,,ATCC 25922,,> 40 µM
CC(C)Oc1c(NC(=O)c2ccc(N3C(=O)C[C@H](NC(=O)c4cc(F)c(/N=N/c5c(F)cccc5F)c(F)c4)C3=O)cc2)ccc(C(=O)N/N=C/c2c(Cl)cncc2Cl)c1O,,BW25113,after 1 h irradiation at 365 nm,> 6.4 µg/mL
O=C(O)c1cn(C2CC2)c2cc(N3CCNCC3)c(F)cc2c1=O,,tetracycline-resistant (pBR322),,0.5 µM
CO[C@@H]1[C@@H](OC(C)=O)[C@H](C)[C@H](O)[C@H](C)[C@@H](O)[C@@H](C)/C=C/C=C(\C)C(=O)Nc2c(/C=N/N3CCN(C)CC3)c(O)c3c4c(c(C)c(O)c3c2O)O[C@](C)(O/C=C/[C@@H]1OC)C4=O,,ATCC 25922,,20 µM
NC[C@H]1O[C@H](O[C@H]2[C@H](O)[C@@H](O[C@H]3O[C@H](CO)[C@@H](O)[C@H](N)[C@H]3O)[C@H](N)C[C@@H]2N)[C@H](O)[C@@H](O)[C@@H]1O,broth microdilution,G92,18 h,512 µg/mL
CC(C)Oc1c(NC(=O)c2ccc(NC(=O)[C@H](CC(N)=O)NC(=O)c3ccc(NC(=O)c4ccc(C#N)cc4)cc3)cc2)ccc(C(=O)N/N=C/c2c(F)cc(C(=O)O)cc2F)c1O,,BW25113,"18 h, 37 °C, irradiated at 365 nm, photostationary state",0.61 µg/mL
N=C(N)c1ccc(OCc2ccccc2COc2ccc(C(=N)N)cc2)cc1,,mcr-3 polymyxin-resistant,compound alone,> 200 µg/mL
Cc1cc(-c2cn[nH]c2-c2cccc(OCc3cccc(C#N)c3)c2)cc(C)n1,CLSI broth microdilution,AR-0549,,2 µg/mL
CC1(C)SC2C(NC(=O)C(NC(=O)C3=C(O)CNC3=O)c3ccccc3)C(=O)N2C1C(=O)O (centres unmarked),broth microdilution,ATCC 25922 wild type,no clavulanic acid,12.5 µg/mL
CO/N=C(\C(=O)N[C@@H]1C(=O)N2C(C(=O)O)=C(COC(C)=O)CS[C@H]12)c1csc(N)n1,broth microdilution,ATCC 25922,ambient air,0.06 µg/mL
CC1(C)S[C@@H]2[C@H](NC(=O)[C@H](N)c3ccccc3)C(=O)N2[C@H]1C(=O)O,,"ATCC BAA-196, resistant","18 h, 37 °C, LED light 10 min, 1.57 mW",> 128 µM
CC[C@H](C)[C@H](NC(=O)[C@H](CCCCN)NC(=O)[C@H](CCC(=O)O)NC(=O)CNC(=O)CNC(=O)[C@H](CCCCN)NC(=O)[C@H](CCCNC(=N)N)NC(=O)[C@H](CC(C)C)NC(=O)[C@H](CC(C)C)NC(=O)CN)C(=O)NCC(=O)N[C@@H](CCC(=O)O)C(=O)N[C@@H](CCCCN)C(=O)N[C@@H](CC(C)C)C(=O)N[C@@H](CCCCN)C(=O)N[C@@H](CCCCN)C(=O)N[C@H](C(=O)NCC(=O)N[C@@H](CCC(N)=O)C(=O)N[C@@H](CCCCN)C(=O)N[C@H](C(=O)N[C@@H](CCCCN)C(=O)N[C@@H](CC(N)=O)C(=O)N[C@@H](Cc1ccccc1)C(=O)N[C@@H](Cc1ccccc1)C(=O)N[C@@H](CCC(N)=O)C(=O)N[C@@H](CCCCN)C(=O)N[C@@H](CC(C)C)C(=O)N[C@H](C(=O)N1CCC[C@H]1C(=O)N[C@@H](CCC(N)=O)C(=O)N1CCC[C@H]1C(=O)N[C@@H](CCC(=O)O)C(=O)N[C@@H](CCC(N)=O)C(=O)O)C(C)C)[C@@H](C)CC)[C@@H](C)CC,broth microdilution,ATCC 25922,,33 µM
CCN1CCN(C(=O)N[C@@H](C(=O)N[C@@H]2C(=O)N3[C@@H]2SC(C)(C)[C@@H]3C(=O)O)c2ccccc2)C(=O)C1=O,broth microdilution,,"24 h, 37 °C, clinical isolate",> 400 µM
CO[C@H]1/C=C/O[C@@]2(C)Oc3c(C)c(O)c4c(c3C2=O)C(=O)C=C(NC(=O)/C(C)=C\C=C\[C@H](C)[C@H](O)[C@@H](C)[C@@H](O)[C@@H](C)[C@H](OC(C)=O)[C@@H]1C)C4=O,,ATCC 25922,,10 µM
N=C(N)c1ccc(OCCCOc2ccc(C(=N)N)cc2)cc1,,BW25113,"compound alone, added: erythromycin checkerboard",200 µg/mL
CC1(C)S[C@@H]2[C@H](NC(=O)[C@H](N)c3ccc(O)cc3)C(=O)N2[C@H]1C(=O)O,broth microdilution,MTCC 405,,10 µg/mL
CO/N=C(\C(=O)N[C@@H]1C(=O)N2C(C(=O)[O-])=C(C[N+]3(C)CCCC3)CS[C@H]12)c1csc(N)n1,broth microdilution,ATCC 25922,5% CO2,0.03 µg/mL
Cc1c(CN(C)C(=O)/C=C/c2cnc3c(c2)CC(NC(=O)OC(C)(C)C)C(=O)N3)oc2ccccc12 (centres unmarked),broth microdilution,AR-0048,,> 32 µg/mL
CO[C@H]1/C=C/O[C@@]2(C)Oc3c(C)c(O)c4c(O)c(c(/C=N/N5CCN(C)CC5)c(O)c4c3C2=O)NC(=O)/C(C)=C\C=C\[C@H](C)[C@H](O)[C@@H](C)[C@@H](O)[C@@H](C)[C@H](OC(C)=O)[C@@H]1C,broth microdilution OD600,Mueller-Hinton broth,"24 h, 37 °C, added: 4.5 mM KCl",16 µM
CC[C@H](C)[C@H](NC(=O)[C@H](CCCNC(=N)N)NC(=O)[C@H](CCCNC(=N)N)NC(=O)[C@@H]1CCCN1C(=O)[C@@H]1CCCN1C(=O)[C@H](CCCNC(=N)N)NC(=O)[C@@H]1CCCN1C(=O)[C@H](CCCNC(=N)N)NC(=O)[C@@H]1CCCN1C(=O)[C@H](CCCNC(=N)N)NC(=O)[C@H](Cc1ccc(O)cc1)NC(=O)[C@@H]1CCCN1C(=O)[C@H](CCCCN)NC(=O)[C@H](CCCCN)NC(=O)[C@H](CC(=O)O)NC(=O)[C@@H](N)C(C)C)C(=O)N[C@@H](Cc1ccc(O)cc1)C(=O)N[C@@H](CC(N)=O)C(=O)N[C@@H](CCCNC(=N)N)C(N)=O,broth microdilution,MRE600,"16 h, 37 °C, 25% Mueller-Hinton broth",2 µg/mL
C=C[C@]1(C)C[C@@H](OC(=O)CS[C@@H]2CC[C@@H](N)C[C@H]2O)[C@]2(C)[C@H](C)CC[C@]3(CCC(=O)[C@H]32)[C@@H](C)[C@@H]1O,,ATCC 25922,,> 40 µM
CN(C)c1ccc(O)c2c1C[C@H]1C[C@H]3[C@H](N(C)C)C(O)=C(C(N)=O)C(=O)[C@@]3(O)C(O)=C1C2=O,broth microdilution,ATCC 25922,ambient air,0.25 µg/mL
Cc1c(CN(C)C(=O)/C=C/c2cnc3c(c2)CC(CCN)C(=O)N3)oc2ccccc12.Cl (centres unmarked),broth microdilution,AR-0349,,2 µg/mL
N=C(N)c1ccccc1OCc1ccccc1COc1ccccc1C(=N)N,,BW25113,"compound alone, rifampicin checkerboard",> 200 µg/mL
CC(C)Oc1c(NC(=O)c2ccc(NC(=O)[C@H](CC(N)=O)NC(=O)c3ccc(NC(=O)c4ccc(C#N)cc4)cc3)cc2)ccc(C(=O)N/N=C/c2ccc(C(=O)O)s2)c1O,,BW25113,"18 h, 37 °C, irradiated at 365 nm, photostationary state",0.03 µg/mL
c1ccc2[nH]c(CNCC34CC5CC(CC(C5)C3)C4)nc2c1,,ATCC 25922,,> 128 µg/mL
CN1CCN(c2ccc(N3C[C@H](CO)OC3=O)cc2F)C=N1,broth microdilution,,compound alone,5 µM
CO[C@H]1/C=C/O[C@@]2(C)Oc3c(C)c(O)c4c(O)c(c(/C=N/N5CCN(C)CC5)c(O)c4c3C2=O)NC(=O)/C(C)=C\C=C\[C@H](C)[C@H](O)[C@@H](C)[C@@H](O)[C@@H](C)[C@H](OC(C)=O)[C@@H]1C,broth microdilution,,18 h,8 µg/mL
N=C(N)c1ccc(OCCC(CCOc2ccc(C(=N)N)cc2)c2ccccc2)cc1 (centres unmarked),,BW25113,"compound alone, rifampicin checkerboard",> 200 µg/mL
OC(Cn1cncn1)(Cn1cncn1)c1ccc(F)cc1F,,"drug-resistant clinical isolate, MHB","24 h, 37 °C",128 µM
O=C(Cc1ccccc1)N[C@@H]1C(=O)N2C(C(=O)O)=C(CSc3cccc4cccnc34)CS[C@H]12,,25922,,128 µg/mL
NC[C@H]1O[C@H](O[C@H]2[C@H](O)[C@@H](O[C@H]3O[C@H](CO)[C@@H](O)[C@H](N)[C@H]3O)[C@H](N)C[C@@H]2N)[C@H](N)C[C@@H]1O,broth microdilution,,18 h,4 µg/mL
O=C(O)c1cn(C2CC2)c2cc(N3CCC(O)(COc4ccc(N5C[C@H](CO)OC5=O)cc4F)CC3)c(F)cc2c1=O,broth microdilution,,compound alone,0.02 µM
CC(C)Oc1c(NC(=O)c2ccc(NC(=O)[C@H](CC(N)=O)NC(=O)c3cc(F)c(/N=N/c4c(F)cccc4F)c(F)c3)cc2)ccc(C(=O)N/N=C/c2ccc(C(=O)O)s2)c1O,,BW25113,after 1 h irradiation at 450 nm,> 6.4 µg/mL
